Published values gathered from unrelated publications.
Every numbered part comes from another study and shows a few of its results, in no order. Changes are numbered by the printed parent chain.

Series 1
Target: ABI1, truncated, D143A, DHFR fusion (Arabidopsis thaliana)
Method: DHFR PCA, deep sequencing
Sample: yeast
Setting: methotrexate growth selection, single substitutions
With: (+)-ABA 2500 µM
Reference: wild-type fitted maximum
Direction: higher = stronger binding
Starting sequence: PYL1, truncated, DHFR fusion (Arabidopsis thaliana); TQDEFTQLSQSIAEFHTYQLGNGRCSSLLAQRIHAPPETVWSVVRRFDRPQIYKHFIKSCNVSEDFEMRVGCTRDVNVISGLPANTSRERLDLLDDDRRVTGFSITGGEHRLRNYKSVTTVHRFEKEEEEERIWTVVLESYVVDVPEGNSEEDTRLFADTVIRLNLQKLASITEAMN; partner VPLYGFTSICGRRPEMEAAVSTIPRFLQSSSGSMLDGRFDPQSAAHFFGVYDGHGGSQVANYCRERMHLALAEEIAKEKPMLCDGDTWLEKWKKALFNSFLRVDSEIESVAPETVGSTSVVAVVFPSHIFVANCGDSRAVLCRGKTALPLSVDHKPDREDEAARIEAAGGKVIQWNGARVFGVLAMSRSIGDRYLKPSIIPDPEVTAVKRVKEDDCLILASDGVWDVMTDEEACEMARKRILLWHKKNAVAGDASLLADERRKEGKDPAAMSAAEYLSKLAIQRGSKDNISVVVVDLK
`T135E`: “relative binding score” 3.65%.
For `D3R`, “relative binding score” read 98%.
`A175N`: “relative binding score” 96%.
`T119W`: “relative binding score” 20.7%.
Under “relative binding score”, `F15N` is recorded as 92.6%.
`D75Q` — result for “relative binding score”: 99.9%.
Under “relative binding score”, `L166C` is recorded as 53.5%.
For `N149L`, “relative binding score” read 70.5%.
`E64L`: “relative binding score” 93.5%.
Under “relative binding score”, `V100I` is recorded as 105%.
For `S26M`, “relative binding score” read 99.7%.
Under “relative binding score”, `N165W` is recorded as 40.2%.
For `K58T`, “relative binding score” read 92.8%.
`N149R`: “relative binding score” 65.1%.

Series 2
Target: RNA binding protein fox-1 homolog 2, RRM domain, GST-SBP tag (RBFOX2, Homo sapiens, UniProt O43251-10, residues 100-194)
Method: RNA Bind-n-Seq
Form: RNA
Sample: in vitro
Concentration: 365 nM
Setting: natural RNA segment, single round, ends assumed
Reference: no-protein control
Direction: higher = stronger binding
Residues (chain): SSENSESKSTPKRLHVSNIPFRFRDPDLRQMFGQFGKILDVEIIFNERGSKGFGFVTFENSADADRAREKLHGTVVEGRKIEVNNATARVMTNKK
`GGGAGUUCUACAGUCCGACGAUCCAAUGUCUAGCCAAGAGUUUAGUUAAUGAAGAAUUAAACUGCACUGUUGAUCGGUGCUUUCUGUAAAUACAUCUUAUCGCUUGGGUUGAGAGGGGCCUUAAGAAGGACAGUGGAAUUCUCGGGUGCCAA` — result for “RBNS enrichment (R)”: 0.4.
For `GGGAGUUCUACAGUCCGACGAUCUUAUUUUAGUCUUUUAUAAAUAAACUGAGUUUUUGAUAGGGUAACUUAUGGAUUGACUAGAUUCAUAUCACUUUCUCCUCUAAAAUAUUGUAGUAUUUUCUUAUAGUUAUUGGAAUUCUCGGGUGCCAA`, “RBNS enrichment (R)” read 0.74.
`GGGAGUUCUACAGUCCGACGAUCAAACUGUGACACUGUGUAAUGAGCACUGUUCCCAGCGGCAAUUACAGAGAAAACGAGUGUAAAUUAUUUCAACUGGAAAAAAGUCCCUUUCUUGGCUGUUUUAGAACAGGUGGAAUUCUCGGGUGCCAA`: “RBNS enrichment (R)” 0.359.
`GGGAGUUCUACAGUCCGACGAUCUGGUCACCCCCGGGCCCAGCCUGGCUGGCGAGAAACAAACACGGUUUGAGAGGCUGUGGCACACUGAGGACCACACAGAUGGAGGCAGCCAAGUGAGGUCCCUGGAGGUUUGGAAUUCUCGGGUGCCAA` — result for “RBNS enrichment (R)”: 0.431.
`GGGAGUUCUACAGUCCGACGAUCCUCUCUCUCAUCCAGGGUCCCUGCCUGACCCACCAGUUGCUCGUGAGCUGCACAGUUCAGAUGAGACUGGACCCUCCCUUACUUACUCCUGAGCCCUGCUCUCCUCUCCUUGGAAUUCUCGGGUGCCAA`: “RBNS enrichment (R)” 0.656.
`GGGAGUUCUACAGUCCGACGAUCCAGGUUAUUGAUAAGGUCAAGGGUUACUGUAAUGCCCAUUCCGAUAACUUCUAUAAAAAUAUCAUCCUGUCAGAUGCCUUCAGCCACAGCACAAAGUUUUAAUGUCAUUGUGGAAUUCUCGGGUGCCAA` — result for “RBNS enrichment (R)”: 0.632.
`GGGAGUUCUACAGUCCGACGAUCGUUAGAAUAUUUUCUGGCCUUCUAUGGGGUAGCAACCCAGAAUCAAUCUGAAUUAGUCCUGUUUUGGUGGAGUUUGUACAUUUUAAAUCCUAUAACAAAAAUAAUCUAGUUGGAAUUCUCGGGUGCCAA`: “RBNS enrichment (R)” 0.427.
Under “RBNS enrichment (R)”, `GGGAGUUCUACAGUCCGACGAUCGUCAGCUGACUUAAAAUGUUUGUGACUUUCCUGUAAGGGCAGCCAGGGAUAAAAGUAUCCUUUGUUCAAUGAGUAGAAAACUAGAUUAUCUAUUAAUAUUUAAGACCAGGUGGAAUUCUCGGGUGCCAA` is recorded as 0.39.
For `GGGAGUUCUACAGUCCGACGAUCUGCCUAGAUCCACGUGUGGCCUCCGUCCUGUCACUGAUGGAAGGUUUGCGGAUGAGGGCAUGUGCGGCUGAACUGAGAAGGCAGGCCUCCGUCUUCCCAGCGGUUCCUGUUGGAAUUCUCGGGUGCCAA`, “RBNS enrichment (R)” read 0.283.
Under “RBNS enrichment (R)”, `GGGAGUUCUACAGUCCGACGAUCCUCGGCUCCCUGCCGAGGCUCAGCUCUUGGGCAAGUUGGGACUUGGACCUGGCCUGAAGACUGAUUGGCUGGAAGGUUGGUUGCAGGAAAGACCGGAGCCCCGCAGGAGUUGGAAUUCUCGGGUGCCAA` is recorded as 0.474.
For `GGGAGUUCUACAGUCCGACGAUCCAGAAUUGUAAUGUGUUUUCAUUUCUCUGUAGGAUUCACCUCUCACCAGCGUCUGUCUUAAAGGUAGGGCCAAUUUCAUGGAGCAUUUUUCUGUGUGUGUCCUUGUUGCUUGGAAUUCUCGGGUGCCAA`, “RBNS enrichment (R)” read 0.57.
`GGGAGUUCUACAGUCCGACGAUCCUAGAUGGAUGUUGAUGCACUGGAGGUCUUUUAGCCUGCCCUUGCAUGGCGCCUGCUGGAGGAGGAGAGAGCUCUGCUGGCAUGAGCCACAGUUUCUUGACUGGAGGCCAUGGAAUUCUCGGGUGCCAA` — result for “RBNS enrichment (R)”: 0.906.

Series 3
Target: CCNF, cyclin fold, Cln2 fusion (human)
Method: yeast growth competition, sequencing
Sample: yeast
Setting: strong parent motif
Reference: not given
Direction: higher = stronger binding
Starting sequence: ASZ1 docking peptide (human); GFGFLLFICKLTF
`T12A` — result for “normalised enrichment score”: 2.35.
For `F2A`, “normalised enrichment score” read 2.19.
For `L5A`, “normalised enrichment score” read 2.32.
`I8A`: “normalised enrichment score” 1.67.
Under “normalised enrichment score”, `F13A` is recorded as 2.32.
For `F7A`, “normalised enrichment score” read 2.24.

Series 4
Target: Interferon regulatory factor 7, full length, phosphomimetic (IRF7, Homo sapiens, UniProt Q92985, residues 1-503, S101K/S471D/S472D/S475D/S476D/S477D/S483D/S484D/S487D)
Method: protein-binding microarray
Form: double-stranded DNA, one strand shown
Sample: in vitro
Concentration: 250 nM
Setting: 60-bp whole probe
With: salmon DNA 0.4 mg/ml
Reference: random background probes
Direction: higher = stronger binding
Shared flanks, not repeated: GCCTAGCAC … GTCTTGATTCGCTTGACGCTGCTG
Target sequence (chain): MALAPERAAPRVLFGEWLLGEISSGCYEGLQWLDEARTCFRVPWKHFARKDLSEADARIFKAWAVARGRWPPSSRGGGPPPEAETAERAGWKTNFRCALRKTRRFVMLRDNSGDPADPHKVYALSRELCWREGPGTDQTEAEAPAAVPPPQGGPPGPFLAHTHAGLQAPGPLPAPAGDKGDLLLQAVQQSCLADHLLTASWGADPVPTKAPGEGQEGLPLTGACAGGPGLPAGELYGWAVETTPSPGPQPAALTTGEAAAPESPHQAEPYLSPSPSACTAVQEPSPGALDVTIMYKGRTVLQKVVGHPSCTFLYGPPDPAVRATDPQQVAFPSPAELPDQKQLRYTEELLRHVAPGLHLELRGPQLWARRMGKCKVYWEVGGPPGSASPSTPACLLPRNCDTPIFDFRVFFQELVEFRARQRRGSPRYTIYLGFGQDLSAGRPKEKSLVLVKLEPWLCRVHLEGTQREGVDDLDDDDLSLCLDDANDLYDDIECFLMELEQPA
`TCTCTTTTATTTTTTTTATTGTGCTAG` has a log fluorescence of 1.23 z-score.
The log fluorescence of `GACGGTCTCCTGCTCCTGACGTGCTAG` is reported as -0.338 z-score.
`TTAGATCTGGGGTTTCGATTAGTGCTA` has a log fluorescence of 5.26 z-score.
`TAAGATTTCGGGTTTCGATTAGTGCTA` gave a log fluorescence of 8.39 z-score.
`TTAGACTTCAGACTGGATTAGTGCTAG` has a log fluorescence of -0.163 z-score.
`TCACCTTTCTCCATGGGACTGTGCTAG` has a log fluorescence of 1.31 z-score.
With `TTACAACTGGGGTTTCGATTAGTGCTA` the log fluorescence was 5.7 z-score.
The log fluorescence of `TTAGGTATCCTTCTCCTTAAGTGCTAG` is reported as 1 z-score.
`GACGAACTGAGGTTCGAGACGTGCTAG` gave a log fluorescence of -0.0527 z-score.
The log fluorescence of `TTAGGTTTCGACTTTCGGTAAGTGCTA` is reported as 11.3 z-score.
For `AAGGTATTATTTATTGTAGCGTGCTAG`, the log fluorescence was 0.554 z-score.
For `GACGGTATCGGACTGGGGATGTGCTAG`, the log fluorescence was -0.152 z-score.
For `GACGATATCGGGTTTCGGGACGTGCTA`, the log fluorescence was 2.14 z-score.
For `GGGTCACTCAATCTCAACAGGTGCTAG`, the log fluorescence was 0.592 z-score.
`CATCCTGAGTCAAGTCAAGTGTGCTAG` gave a log fluorescence of 0.213 z-score.
The log fluorescence of `GACGGTATCCTAATCCTGACGTGCTAG` is reported as 0.23 z-score.
`TTAGGACTGGACATTCGGTTAGTGCTA` has a log fluorescence of 0.0505 z-score.
With `CTTTTTTTCCGAGTGAGTAAGTGCTAG` the log fluorescence was 2.26 z-score.
For `TTAGGTATCGGTCTCGGTTTGTGCTAG`, the log fluorescence was 5.31 z-score.
The log fluorescence of `TTGGGTTCCGGTTTCGGTTAGTGCTAG` is reported as 10.4 z-score.
The log fluorescence of `AACGGTTTCGGTCTCGGGACGTGCTAG` is reported as 8.5 z-score.

Series 5
Target: Histone acetyltransferase KAT6A, winged helix 1, GST fusion (KAT6A, Homo sapiens, UniProt Q92794, residues 1-85)
Method: protein binding microarray
Form: double-stranded DNA, one strand shown
Sample: in vitro
Concentration: not given
Setting: 8-mer, flanks averaged, mean of 2 arrays, mostly near background
Reference: not given
Direction: higher = stronger binding
Residues (chain): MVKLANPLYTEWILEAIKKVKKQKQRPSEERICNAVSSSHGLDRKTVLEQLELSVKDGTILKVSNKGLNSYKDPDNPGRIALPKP
With `CGCGATGA` the E-score was 0.202.
`CGCTGTAG` gave an E-score of 0.225.
The E-score of `CATTCTCG` is reported as -0.0561.
The E-score of `CGTTCCCA` is reported as -0.0599.
`CAACGGAG` has an E-score of 0.0359.
`GACGGAGA` has an E-score of 0.272.
`CATTCCGC` gave an E-score of 0.248.
`AAGTGACG` gave an E-score of 0.023.
The E-score of `CATCCTGG` is reported as -0.164.
`ACCTGAGG` has an E-score of -0.0319.
With `CAATTAGC` the E-score was 0.0725.
With `CATCTGAG` the E-score was 0.0339.
The E-score of `CTTGAAAG` is reported as -0.172.
With `GTATTAGA` the E-score was -0.191.
For `AAGGCCGC`, the E-score was 0.34.
`CAATTGGC` gave an E-score of -0.081.
The E-score of `CGGTGCAG` is reported as 0.215.
The E-score of `TACAGGCA` is reported as -0.0695.
With `GCGTTTAC` the E-score was 0.26.
`CGGGTCTC` has an E-score of 0.277.
With `AGCAGTTC` the E-score was -0.228.
`TGCTCTAA` has an E-score of -0.00248.
`CATACCAA` has an E-score of 0.0129.
For `ATTAAGGC`, the E-score was -0.0532.
`AGATAATG` has an E-score of -0.202.

Some of these lines once more (series 1):
`D75Q` — result for “relative binding score”: 99.9%.
Under “relative binding score”, `L166C` is recorded as 53.5%.
For `N149L`, “relative binding score” read 70.5%.
`E64L`: “relative binding score” 93.5%.
Under “relative binding score”, `V100I` is recorded as 105%.
